Experimental data gathered from unrelated publications.
Each numbered part is a random draw from the data of one study; scales do not carry over between parts. Values joined by “and” are separate records of one study, mostly repeats; a detail may differ.
Chain of UniProt Q8TDR2 (whole entry, looked up): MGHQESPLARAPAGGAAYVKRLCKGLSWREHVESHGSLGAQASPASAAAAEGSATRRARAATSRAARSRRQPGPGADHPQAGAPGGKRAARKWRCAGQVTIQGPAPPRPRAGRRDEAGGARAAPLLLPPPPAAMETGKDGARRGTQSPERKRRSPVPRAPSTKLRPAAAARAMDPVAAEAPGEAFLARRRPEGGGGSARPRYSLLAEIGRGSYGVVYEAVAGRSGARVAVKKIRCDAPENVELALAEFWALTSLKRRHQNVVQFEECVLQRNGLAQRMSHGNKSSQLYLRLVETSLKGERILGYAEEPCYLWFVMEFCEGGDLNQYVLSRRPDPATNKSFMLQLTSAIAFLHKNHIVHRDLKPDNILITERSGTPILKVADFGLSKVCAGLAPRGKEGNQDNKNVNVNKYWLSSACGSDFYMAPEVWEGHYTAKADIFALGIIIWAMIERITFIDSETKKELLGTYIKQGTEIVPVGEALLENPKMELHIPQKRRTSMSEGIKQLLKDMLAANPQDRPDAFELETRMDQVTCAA
Chain of UniProt Q8NI60 (whole entry, looked up): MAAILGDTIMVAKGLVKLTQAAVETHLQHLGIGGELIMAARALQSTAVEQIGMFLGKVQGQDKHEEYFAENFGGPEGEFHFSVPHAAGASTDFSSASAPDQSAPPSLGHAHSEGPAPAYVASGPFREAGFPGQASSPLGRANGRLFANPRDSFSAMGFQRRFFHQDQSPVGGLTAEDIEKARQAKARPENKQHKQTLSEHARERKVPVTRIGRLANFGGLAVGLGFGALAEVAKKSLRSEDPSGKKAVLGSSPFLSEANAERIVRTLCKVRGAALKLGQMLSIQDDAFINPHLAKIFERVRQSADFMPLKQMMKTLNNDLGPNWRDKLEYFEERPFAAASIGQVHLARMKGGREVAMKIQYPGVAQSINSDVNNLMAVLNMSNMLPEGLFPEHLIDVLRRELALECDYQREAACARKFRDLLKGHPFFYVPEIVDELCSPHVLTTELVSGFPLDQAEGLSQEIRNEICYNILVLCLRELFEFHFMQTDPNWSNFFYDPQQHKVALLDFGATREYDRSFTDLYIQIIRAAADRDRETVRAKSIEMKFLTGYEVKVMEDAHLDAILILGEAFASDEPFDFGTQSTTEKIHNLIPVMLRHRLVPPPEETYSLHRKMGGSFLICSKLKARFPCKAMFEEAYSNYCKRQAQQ
Chain of UniProt Q59H18 (whole entry, looked up): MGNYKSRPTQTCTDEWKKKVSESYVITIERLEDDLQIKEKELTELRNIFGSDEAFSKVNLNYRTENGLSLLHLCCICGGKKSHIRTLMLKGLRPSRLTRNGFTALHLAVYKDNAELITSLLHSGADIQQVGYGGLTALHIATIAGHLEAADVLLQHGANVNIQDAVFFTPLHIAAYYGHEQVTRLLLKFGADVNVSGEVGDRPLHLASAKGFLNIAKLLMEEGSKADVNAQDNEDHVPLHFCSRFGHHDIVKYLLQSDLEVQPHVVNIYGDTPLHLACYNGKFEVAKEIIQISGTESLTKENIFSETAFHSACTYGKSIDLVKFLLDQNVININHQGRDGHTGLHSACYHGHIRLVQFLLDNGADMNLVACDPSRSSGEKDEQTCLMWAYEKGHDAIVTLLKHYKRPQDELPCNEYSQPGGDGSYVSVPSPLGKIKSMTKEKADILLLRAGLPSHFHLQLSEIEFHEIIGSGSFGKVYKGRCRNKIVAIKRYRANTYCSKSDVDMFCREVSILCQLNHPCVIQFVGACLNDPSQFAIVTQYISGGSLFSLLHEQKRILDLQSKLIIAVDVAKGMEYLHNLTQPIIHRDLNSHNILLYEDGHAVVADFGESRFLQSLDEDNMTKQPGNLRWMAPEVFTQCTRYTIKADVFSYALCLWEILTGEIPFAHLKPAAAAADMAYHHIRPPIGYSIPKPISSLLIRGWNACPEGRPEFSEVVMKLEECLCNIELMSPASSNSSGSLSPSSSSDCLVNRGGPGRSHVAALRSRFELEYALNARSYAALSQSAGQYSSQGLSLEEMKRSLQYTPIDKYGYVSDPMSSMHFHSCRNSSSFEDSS
Chain of UniProt Q13131 (whole entry, looked up): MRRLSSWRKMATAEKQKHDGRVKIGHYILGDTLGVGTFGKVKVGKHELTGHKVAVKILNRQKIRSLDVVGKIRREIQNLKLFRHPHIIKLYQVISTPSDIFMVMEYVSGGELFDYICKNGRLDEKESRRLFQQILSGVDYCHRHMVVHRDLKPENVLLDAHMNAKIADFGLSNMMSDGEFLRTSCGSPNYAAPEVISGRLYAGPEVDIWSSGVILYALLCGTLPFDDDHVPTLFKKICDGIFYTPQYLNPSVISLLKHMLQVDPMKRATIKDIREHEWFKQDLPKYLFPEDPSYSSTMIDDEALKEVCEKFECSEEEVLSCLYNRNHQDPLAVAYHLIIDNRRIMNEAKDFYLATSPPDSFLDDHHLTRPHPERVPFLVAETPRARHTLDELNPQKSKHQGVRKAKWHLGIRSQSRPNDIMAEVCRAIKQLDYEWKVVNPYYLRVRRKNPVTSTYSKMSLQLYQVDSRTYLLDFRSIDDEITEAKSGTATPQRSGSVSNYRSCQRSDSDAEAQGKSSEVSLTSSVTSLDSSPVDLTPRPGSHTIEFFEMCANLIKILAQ
Chain of UniProt Q6ZN16 (whole entry, looked up): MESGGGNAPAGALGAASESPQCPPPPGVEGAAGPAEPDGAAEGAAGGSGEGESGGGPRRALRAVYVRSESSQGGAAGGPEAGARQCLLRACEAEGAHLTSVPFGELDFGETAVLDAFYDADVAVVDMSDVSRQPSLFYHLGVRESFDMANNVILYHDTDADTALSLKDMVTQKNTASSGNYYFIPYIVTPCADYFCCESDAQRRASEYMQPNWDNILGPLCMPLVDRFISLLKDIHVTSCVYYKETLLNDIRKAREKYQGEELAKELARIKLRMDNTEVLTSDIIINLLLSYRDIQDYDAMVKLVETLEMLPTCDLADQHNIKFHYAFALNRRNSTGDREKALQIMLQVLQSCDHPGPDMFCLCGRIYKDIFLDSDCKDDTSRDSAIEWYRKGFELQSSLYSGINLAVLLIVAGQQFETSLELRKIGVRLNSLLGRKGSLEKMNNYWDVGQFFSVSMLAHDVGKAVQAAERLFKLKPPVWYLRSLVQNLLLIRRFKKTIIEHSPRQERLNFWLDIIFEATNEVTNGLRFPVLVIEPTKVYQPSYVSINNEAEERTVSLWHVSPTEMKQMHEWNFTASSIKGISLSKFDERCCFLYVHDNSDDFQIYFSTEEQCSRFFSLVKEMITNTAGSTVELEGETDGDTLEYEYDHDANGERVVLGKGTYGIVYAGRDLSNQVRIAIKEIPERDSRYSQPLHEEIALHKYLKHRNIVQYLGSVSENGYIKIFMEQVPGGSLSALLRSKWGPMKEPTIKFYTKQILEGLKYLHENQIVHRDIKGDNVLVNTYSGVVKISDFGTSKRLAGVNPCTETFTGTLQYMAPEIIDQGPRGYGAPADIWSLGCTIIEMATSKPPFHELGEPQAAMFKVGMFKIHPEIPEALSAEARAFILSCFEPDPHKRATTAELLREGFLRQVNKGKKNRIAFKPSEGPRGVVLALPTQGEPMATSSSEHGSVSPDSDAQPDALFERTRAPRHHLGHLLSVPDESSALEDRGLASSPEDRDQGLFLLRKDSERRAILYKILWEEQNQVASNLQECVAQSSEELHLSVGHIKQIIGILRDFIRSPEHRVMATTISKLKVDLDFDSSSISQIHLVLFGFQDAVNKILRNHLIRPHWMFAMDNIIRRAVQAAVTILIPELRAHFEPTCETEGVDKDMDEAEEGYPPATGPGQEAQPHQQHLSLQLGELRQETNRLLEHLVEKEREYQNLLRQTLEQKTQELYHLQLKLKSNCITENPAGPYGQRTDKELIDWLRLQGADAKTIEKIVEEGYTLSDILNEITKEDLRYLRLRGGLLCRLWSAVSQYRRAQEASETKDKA
Chain of UniProt O14757 (whole entry, looked up): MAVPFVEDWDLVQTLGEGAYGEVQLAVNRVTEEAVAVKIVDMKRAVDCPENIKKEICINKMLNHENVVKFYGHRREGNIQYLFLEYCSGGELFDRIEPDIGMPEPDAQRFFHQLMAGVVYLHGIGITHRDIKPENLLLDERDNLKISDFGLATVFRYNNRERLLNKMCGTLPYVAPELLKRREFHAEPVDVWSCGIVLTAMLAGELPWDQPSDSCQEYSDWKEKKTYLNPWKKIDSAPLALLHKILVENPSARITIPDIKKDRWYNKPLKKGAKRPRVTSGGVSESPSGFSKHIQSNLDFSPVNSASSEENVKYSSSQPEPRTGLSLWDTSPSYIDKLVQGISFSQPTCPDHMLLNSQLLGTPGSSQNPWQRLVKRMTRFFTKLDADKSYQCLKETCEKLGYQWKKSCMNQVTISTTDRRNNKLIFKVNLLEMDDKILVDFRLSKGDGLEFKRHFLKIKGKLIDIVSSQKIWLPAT

Block 1
SMILES: CCOc1ccc(Nc2c3c(nc4ccccc24)CCC3)cc1
Organism: Leishmania donovani
| assay | system | setting | inhibition |
| --- | --- | --- | --- |
| parasite killing | DD8, promastigotes | 0.16 µM, 24 h | 9% and 13% |
| parasite growth | DD8 amphotericin B-resistant, intracellular amastigotes | 0.4 µM | 18% and 11% and 25% and 15% and 16% and 14% |
| parasite growth | DD8 amphotericin B-resistant, promastigotes | 0.0066 µM | 1% and 6% and 2% |
| parasite growth |  | 40 µM, intracellular, amastigote | 100% |
| parasite growth |  | 0.4 µM, intracellular, amastigote | 1% |
| parasite growth | DD8 amphotericin B-resistant, promastigotes | 0.33 µM | 5% and 12% and 4% and 9% and 1% |

Block 2
Target: Serine/threonine-protein kinase 33 (STK33, Homo sapiens, UniProt Q9BYT3)
Chain of UniProt Q9BYT3 (whole entry, looked up): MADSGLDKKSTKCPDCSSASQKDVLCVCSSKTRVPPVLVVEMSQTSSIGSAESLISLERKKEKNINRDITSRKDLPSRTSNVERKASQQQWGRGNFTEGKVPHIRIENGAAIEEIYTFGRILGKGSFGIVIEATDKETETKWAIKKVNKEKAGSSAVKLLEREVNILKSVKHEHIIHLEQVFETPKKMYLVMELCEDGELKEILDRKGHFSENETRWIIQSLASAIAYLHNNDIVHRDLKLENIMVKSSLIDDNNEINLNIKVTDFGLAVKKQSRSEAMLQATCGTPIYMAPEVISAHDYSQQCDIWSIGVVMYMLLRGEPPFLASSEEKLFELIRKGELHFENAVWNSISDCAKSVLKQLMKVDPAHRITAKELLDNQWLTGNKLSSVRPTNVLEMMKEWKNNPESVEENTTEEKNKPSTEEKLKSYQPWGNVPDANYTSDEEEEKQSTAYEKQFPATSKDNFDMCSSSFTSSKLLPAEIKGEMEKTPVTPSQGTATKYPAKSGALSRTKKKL
Observed: enzyme activity
Action: inhibitor
Technique: radiometric
Tested at: 0.5 µM
| Structure (SMILES) | remaining activity |
| --- | --- |
| CN(C)c1ccc(C=C2C(=O)Nc3ccccc32)cc1 | 99.8% |
| Cn1c2ccccc2c2c3c(c4c5ccccc5n(CCC#N)c4c21)CNC3=O | 26.5% |
| O=c1c2ccccc2[nH]c(=S)n1CCN1CCC(=C(c2ccc(F)cc2)c2ccc(F)cc2)CC1 | 106% |
| C#Cc1cccc(Nc2ncnc3cc(OCCOC)c(OCCOC)cc23)c1 | 90.8% |
| CO[C@H]1C[C@@H]2CC[C@@H](C)[C@@](O)(O2)C(=O)C(=O)N2CCCC[C@H]2C(=O)O[C@H]([C@H](C)C[C@@H]2CC[C@@H](O)[C@H](OC)C2)CC(=O)[C@H](C)/C=C(\C)[C@@H](O)[C@@H](OC)C(=O)[C@H](C)C[C@H](C)/C=C/C=C/C=C/1C | 105% |
| Cc1ccc(Nc2nccc(N(C)c3ccc4c(C)n(C)nc4c3)n2)cc1S(N)(=O)=O | 87.1% |
| O=C(O)c1ccc2c3c1cccc3c(=O)n1c3ccccc3nc21 | 78.8% |

Block 3
Cell line: HEK-293T/ACE2
Tested at: concentration not given
Time: 16 (unit not given)
Reference: vehicle
| SMILES | viability [%] |
| --- | --- |
| CCCN(CCC)S(=O)(=O)c1ccc(C(=O)O)cc1 | 97.4 |
| Clc1ccc(C(Cn2ccnc2)OCc2csc3c(Cl)cccc23)c(Cl)c1 (stereo not shown) | 96.7 |
| CC(C)(C)NC(=O)[C@H]1CC[C@H]2[C@@H]3CC[C@H]4NC(=O)C=C[C@]4(C)[C@H]3CC[C@]12C | 102 |
| COc1ccc(C(=O)c2ccccc2)c(O)c1 | 102 |
| CCN(C)C(=O)Oc1cccc([C@H](C)N(C)C)c1 | 102 |
| CCCCC[C@H](O)/C=C/[C@H]1[C@H](O)CC(=O)[C@@H]1CCCCCCC(=O)O | 102 |

Block 4
Compound: N#CC1(c2ccccn2)CCN(Cc2cc(C(=O)O)c(=O)n3ccccc23)CC1
Observed: cell-free assay
Technique: competition with immobilised ligand
Tested at: 1 µM
| target | remaining binding |
| --- | --- |
| NEK10 (Homo sapiens, UniProt Q6ZWH5) | 93% |
| TAOK2 (Homo sapiens, UniProt Q9UL54) | 97% |
| CHEK1 (Homo sapiens, UniProt O14757) | 100% |
| KIT (Homo sapiens, UniProt P10721) | 100% |
| COQ8A (Homo sapiens, UniProt Q8NI60) | 100% |
| STK35 (Homo sapiens, UniProt Q8TDR2) | 94% |
| ABL2 (Homo sapiens, UniProt P42684) | 100% |
| WEE1 (Homo sapiens, UniProt P30291) | 99% |
| MAPK7 (Homo sapiens, UniProt Q13164) | 94% |
| Tyrosine-protein kinase ABL1, non-phosphorylated (ABL1, Homo sapiens, UniProt P00519, T315I) | 80% |
| MAP3K20 (Homo sapiens, UniProt Q9NYL2) | 100% |
| PRKAA1 (Homo sapiens, UniProt Q13131) | 100% |
| MAP3K15 (Homo sapiens, UniProt Q6ZN16) | 100% |
| SGK3 (Homo sapiens, UniProt Q96BR1) | 74% |
| TNNI3K (Homo sapiens, UniProt Q59H18) | 100% |

For quick reference, copied from above (block 4):
| target | remaining binding |
| --- | --- |
| CHEK1 (Homo sapiens, UniProt O14757) | 100% |
| KIT (Homo sapiens, UniProt P10721) | 100% |
| COQ8A (Homo sapiens, UniProt Q8NI60) | 100% |
| STK35 (Homo sapiens, UniProt Q8TDR2) | 94% |
| ABL2 (Homo sapiens, UniProt P42684) | 100% |
